Measurements pooled from the literature.
Lines come from different studies, so protocols differ.

| Compound | assay | test system | setting | endpoint | result |
| --- | --- | --- | --- | --- | --- |
| O=C1CCc2ccc(NS(=O)(=O)c3cccc(Oc4ccccc4)c3)cc2N1 | rapid equilibrium dialysis | C57BL/6J mouse, plasma | – | unbound fraction | 0.39% |
| Nc1nc(Cl)nc2c1ncn2Cc1cc(OCC(F)F)cc(OC(F)F)c1 | – | C57BL/6J mouse male, brain homogenate | oral, 5.0 mg/kg, 4 h | unbound brain concentration | 114 ng/g |
| O=C(Cc1ccc(-c2ccc(OCCN3CCOCC3)cc2)cn1)NCc1ccc(F)cc1 | – | mouse, plasma | – | unbound fraction | 0.107 |
| Cc1nc(N[C@@H](C)c2ccc(-c3nc(C4CC4)no3)cc2)c2cc(C)oc2n1 | – | mouse, plasma | – | unbound fraction | 0.0029 |
| CCCCCCCCCCCCCCCC(=O)NCCOCCOCCOCCOCCOCCOCCOCCOCCC(=O)NCCCC[C@H](NC(=O)CNC(=O)[C@@H]1CSSC[C@H](N)C(=O)N[C@@H](Cc2ccc(O)cc2)C(=O)N[C@@H]([C@@H](C)CC)C(=O)N[C@@H](CCC(N)=O)C(=O)N[C@@H](CC(N)=O)C(=O)N1)C(=O)NCC(N)=O | – | mouse, plasma | subcutaneous, non-depot, 1 mg/kg | unbound Cmax | 0.6 nM |
| Cc1ccc(CNC(=O)Cc2ccc(-c3ccc(OCCN4CCOCC4)cc3)cn2)cc1 | – | mouse, plasma | – | unbound fraction | 0.057 |
| OC1(C(F)(F)F)CCN(c2nc(Nc3ccnc(C(F)(F)F)c3)nc(-c3cccc(C(F)(F)F)n3)n2)C1 (centres unmarked) | – | mouse CD-1, plasma | 0.5, 5 and 50 µM, 6 h | unbound fraction | < 0.005 |
| Cc1cc(NC(=O)[C@H](O)c2cc(F)cc(F)c2)ccc1-c1cnc(N)c(C(=O)NC(C)C)c1 | equilibrium dialysis | nu/nu mouse, female, plasma | 1 µM, 6 h, pH 7.4, 37 °C | unbound fraction | 0.023 |
